{"data": "Results collected from several papers", "note": "Each line is one published result; not all experiments were run side by side."}
{"Structure (SMILES)": "C[n+]1ccc(/C=N/NC(=O)c2cncc(C(=O)N/N=C/c3cc[n+](C)c4ccccc34)n2)c2ccccc21", "cell line": "MRC5", "assay": "cell growth or viability, ATP luminescence", "conditions": "96 h", "GI50 [µM]": 52.3}
{"Structure (SMILES)": "COC1CN([C@H]2CC[C@H]([C@@]3(C)Oc4c(Cl)cc(C(=O)NCc5c(SC)cc(C)[nH]c5=O)c(C)c4O3)CC2)C1", "cell line": "SW1710", "assay": "cell growth or viability, ATP luminescence", "conditions": "12 days", "GI50 [µM]": "> 1"}
{"Structure (SMILES)": "CC(=C(c1ccc(O)cc1)c1ccc(Cl)cc1)c1ccc(Cl)cc1", "cell line": "IGROV-1", "assay": "cell growth or viability", "GI50 [µM]": 0.84}
{"Structure (SMILES)": "CN(C)c1cccc2c(S(=O)(=O)NCCCCCC(=O)NO)cccc12", "cell line": "C4-2", "assay": "cell growth or viability, MTS", "GI50 [µM]": 1.91}
{"Structure (SMILES)": "C1=[N+]2CCCC[N+]3=Cc4ccc5[n]4[Au-]23[n]2c1ccc2-c1nc2ccccc2nc1-5.F[P-](F)(F)(F)(F)F", "cell line": "melanoma cancer cell lines", "conditions": "NCI60 panel mean", "GI50 [µM]": 8}
{"Structure (SMILES)": "Cn1cc(-c2cc(N3CCCCS3(=O)=O)ccc2N[C@H]2CC[C@H](C)CC2)c2cc[nH]c2c1=O (stereo in doubt)", "cell line": "Rec1", "assay": "cell growth or viability, CCK-8", "conditions": "72 h", "GI50 [µM]": 0.0022}
{"Structure (SMILES)": "CC(Cc1ccc(Cl)cc1)=C(c1ccc(Cl)cc1)c1ccc(OCCN(C)C)cc1", "cell line": "SK-MEL-2", "assay": "cell growth or viability, SRB", "GI50 [µM]": 5.69}
{"Structure (SMILES)": "C[n+]1ccc(/C=N/NC(=O)c2cccc(C(=O)N/N=C/c3cc[n+](C)c4ccccc34)n2)c2ccccc21", "cell line": "MRC5", "assay": "cell growth or viability, ATP luminescence", "conditions": "96 h", "GI50 [µM]": 24.8}
{"Structure (SMILES)": "CCC(=C(c1ccc(Cl)cc1)c1ccc(OCCCN(C)C)cc1)c1ccc(OC)cc1", "cell line": "Hs-578T", "assay": "cell growth or viability, SRB", "GI50 [µM]": 7.08}
{"Structure (SMILES)": "CC/C=C\\C/C=C\\C/C=C\\C/C=C\\C/C=C\\C/C=C\\CCC(=O)Nc1ccn(C2OC(CO)C(O)C2(F)F)c(=O)n1 (stereo not shown)", "cell line": "IGROV-1", "assay": "cell growth or viability, SRB", "GI50 [µM]": 3.45}
{"note": "Repeated from above:"}
{"Structure (SMILES)": "CC(Cc1ccc(Cl)cc1)=C(c1ccc(Cl)cc1)c1ccc(OCCN(C)C)cc1", "cell line": "SK-MEL-2", "assay": "cell growth or viability, SRB", "GI50 [µM]": 5.69}
